Measurements of several laboratories.
Parts stem from different laboratories: compare values within a part only. Substitutions count along the parent as printed.

Set 1 — target: CCNA1, cyclin fold, Cln2 fusion (human); technique: yeast growth competition, sequencing; sample: yeast; notes: weak parent motif; baseline: not given; direction: higher = stronger binding; endpoint: normalised enrichment score
Starting sequence: E2F1 docking peptide (human); PPVKRRLDLETDH
PPIKRRLDLETDH [V3I]: 0.157
PPYKRRLDLETDH [V3Y]: 0.506
PPVKRRLDLETDG [H13G]: 0.47
GPVKRRLDLETDH [P1G]: 0.47
PPVKRRGDLETDH [L7G]: 0.178
PPVKYRLDLETDH [R5Y]: 0.108
PPVKRRLDLEQDH [T11Q]: 0.284
PPFKRRLDLETDH [V3F]: 0.44
PPVIRRLDLETDH [K4I]: 0.204
PPLKRRLDLETDH [V3L]: -0.0175
PPVKRRLDLEYDH [T11Y]: 0.827
PPVKRRLDLEKDH [T11K]: 0.372
EPVKRRLDLETDH [P1E]: 0.296
PPVKRKLDLETDH [R6K]: 0.289

Set 2 — technique: protein-binding microarray; molecule type: double-stranded DNA, one strand shown; sample: in vitro; concentration: not given; direction: higher = stronger binding; endpoint: E-score
Target: Max dimerization protein 1, bHLH-zipper, MAX partner unstated (MXD1, Homo sapiens, UniProt Q05195, residues 56-136)
Notes: k-mer, scored over probes, only values ≥0.25
Construct (chain): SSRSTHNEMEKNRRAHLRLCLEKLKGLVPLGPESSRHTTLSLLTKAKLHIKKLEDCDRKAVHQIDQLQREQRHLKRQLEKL
AAAACACG: 0.306
CAGCATGC: 0.417
CGTGTCAC: 0.315
ACCTGTTC: 0.289
GATCATGC: 0.276
CGTGCAAC: 0.298
CCCATGGC: 0.259
ACAACATG: 0.352
CACGCACG: 0.326
CGCACACC: 0.262
CGTGGACA: 0.309
ACGCATGG: 0.461
GGAACGCA: 0.313
CTCGTGGC: 0.408
GCCCACCC: 0.396

Set 3 — target: DDIT3, bZIP domain (human); technique: DHFR protein complementation; sample: yeast; baseline: wild-type JUN-FOS pair; direction: higher = stronger binding; endpoint: binding fitness
Notes: single substitutions, most at no-binding floor
Starting sequence: JUN, bZIP domain (human); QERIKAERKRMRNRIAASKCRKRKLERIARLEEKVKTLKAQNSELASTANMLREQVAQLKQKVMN; partner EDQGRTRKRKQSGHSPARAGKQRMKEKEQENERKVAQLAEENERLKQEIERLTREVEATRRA
Q58T: 0.0121 natural log
L52A: -1.19 natural log
A29M: -0.278 natural log
R30N: 0.0537 natural log
T48F: -0.078 natural log
V56L: 0.158 natural log
L38T: -1.03 natural log
T37C: 0.0529 natural log
R30A: 0.265 natural log
A46M: 0.13 natural log
V35N: -1.23 natural log
I28K: -0.188 natural log
E54R: -0.088 natural log
K34V: -0.0352 natural log
L31D: -0.941 natural log

Mixed results
PhoQ, residues 284 288 289 292 302 303 GNNTDL — fold induction (PhoP, residues 12 14 15 18 19 SEGLL (Escherichia coli, UniProt P23836); Sort-seq, refers to: YFP reporter; E. coli; PhoQ-PhoP variant library, together with: 10 µM Mg2+; baseline: high Mg2+ state, higher = stronger signaling): 4.16

Some of these lines once more (set 1):
GPVKRRLDLETDH [P1G]: 0.47
PPVKRRGDLETDH [L7G]: 0.178
PPVKYRLDLETDH [R5Y]: 0.108
PPVKRRLDLEQDH [T11Q]: 0.284
PPFKRRLDLETDH [V3F]: 0.44
PPVIRRLDLETDH [K4I]: 0.204
PPLKRRLDLETDH [V3L]: -0.0175
